Measurements pooled from the literature.
Each numbered part is a random draw from the data of one study; scales do not carry over between parts. “And” joins repeats or separate records; there may be more than shown.
Sequence of UniProt Q32MK0 (whole entry, looked up): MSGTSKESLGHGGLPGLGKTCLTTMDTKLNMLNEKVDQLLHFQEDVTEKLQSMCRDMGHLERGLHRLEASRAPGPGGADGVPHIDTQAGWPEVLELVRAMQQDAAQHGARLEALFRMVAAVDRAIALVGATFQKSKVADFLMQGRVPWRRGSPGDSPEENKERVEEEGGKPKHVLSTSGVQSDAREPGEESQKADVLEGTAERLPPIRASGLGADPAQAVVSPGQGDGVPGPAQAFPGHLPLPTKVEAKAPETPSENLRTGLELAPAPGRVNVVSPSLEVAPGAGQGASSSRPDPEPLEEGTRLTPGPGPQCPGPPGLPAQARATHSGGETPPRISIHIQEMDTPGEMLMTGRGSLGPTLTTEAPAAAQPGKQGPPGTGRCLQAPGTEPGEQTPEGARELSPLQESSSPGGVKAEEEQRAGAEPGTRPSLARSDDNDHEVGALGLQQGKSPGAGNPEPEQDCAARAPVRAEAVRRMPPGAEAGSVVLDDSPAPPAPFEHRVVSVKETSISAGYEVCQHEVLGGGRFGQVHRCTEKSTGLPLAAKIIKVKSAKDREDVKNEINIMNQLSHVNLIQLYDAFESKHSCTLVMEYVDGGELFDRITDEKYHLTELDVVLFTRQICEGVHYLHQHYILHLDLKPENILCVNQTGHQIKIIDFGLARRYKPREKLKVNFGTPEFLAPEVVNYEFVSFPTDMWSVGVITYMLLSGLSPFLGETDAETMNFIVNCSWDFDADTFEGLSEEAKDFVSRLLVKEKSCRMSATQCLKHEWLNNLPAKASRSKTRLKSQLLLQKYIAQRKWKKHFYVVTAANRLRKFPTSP
Sequence of UniProt P20794 (whole entry, looked up): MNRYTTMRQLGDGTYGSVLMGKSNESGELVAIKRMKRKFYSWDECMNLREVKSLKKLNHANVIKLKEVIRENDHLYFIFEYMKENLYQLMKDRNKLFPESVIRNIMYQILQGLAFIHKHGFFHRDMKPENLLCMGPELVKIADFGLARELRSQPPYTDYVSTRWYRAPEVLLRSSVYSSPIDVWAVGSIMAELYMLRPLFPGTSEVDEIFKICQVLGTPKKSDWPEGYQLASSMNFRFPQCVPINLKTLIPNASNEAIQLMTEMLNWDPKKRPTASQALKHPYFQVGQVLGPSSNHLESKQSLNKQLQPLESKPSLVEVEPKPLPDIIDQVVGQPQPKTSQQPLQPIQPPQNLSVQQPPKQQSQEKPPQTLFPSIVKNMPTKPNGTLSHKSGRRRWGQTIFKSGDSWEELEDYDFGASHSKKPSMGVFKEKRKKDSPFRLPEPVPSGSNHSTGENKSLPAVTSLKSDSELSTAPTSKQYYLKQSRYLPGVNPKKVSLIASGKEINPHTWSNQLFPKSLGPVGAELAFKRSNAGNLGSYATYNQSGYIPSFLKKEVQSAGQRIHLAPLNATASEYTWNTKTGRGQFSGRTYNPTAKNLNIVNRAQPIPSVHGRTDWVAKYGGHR
Sequence of UniProt O96017 (whole entry, looked up): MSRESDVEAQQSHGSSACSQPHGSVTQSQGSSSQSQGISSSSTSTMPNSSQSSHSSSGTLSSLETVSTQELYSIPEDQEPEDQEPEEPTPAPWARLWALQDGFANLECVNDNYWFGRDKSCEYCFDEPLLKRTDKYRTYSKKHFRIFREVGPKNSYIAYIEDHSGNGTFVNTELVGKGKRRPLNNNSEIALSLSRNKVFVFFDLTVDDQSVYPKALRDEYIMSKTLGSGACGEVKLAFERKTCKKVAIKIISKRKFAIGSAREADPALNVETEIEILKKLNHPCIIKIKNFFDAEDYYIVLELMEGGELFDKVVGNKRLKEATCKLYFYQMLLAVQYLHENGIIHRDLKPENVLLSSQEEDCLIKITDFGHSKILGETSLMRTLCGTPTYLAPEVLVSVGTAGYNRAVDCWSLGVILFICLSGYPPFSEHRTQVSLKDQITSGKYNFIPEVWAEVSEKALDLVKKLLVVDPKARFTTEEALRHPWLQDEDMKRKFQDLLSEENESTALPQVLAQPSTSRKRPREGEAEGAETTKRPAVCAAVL
Sequence of UniProt P06213 (whole entry, looked up): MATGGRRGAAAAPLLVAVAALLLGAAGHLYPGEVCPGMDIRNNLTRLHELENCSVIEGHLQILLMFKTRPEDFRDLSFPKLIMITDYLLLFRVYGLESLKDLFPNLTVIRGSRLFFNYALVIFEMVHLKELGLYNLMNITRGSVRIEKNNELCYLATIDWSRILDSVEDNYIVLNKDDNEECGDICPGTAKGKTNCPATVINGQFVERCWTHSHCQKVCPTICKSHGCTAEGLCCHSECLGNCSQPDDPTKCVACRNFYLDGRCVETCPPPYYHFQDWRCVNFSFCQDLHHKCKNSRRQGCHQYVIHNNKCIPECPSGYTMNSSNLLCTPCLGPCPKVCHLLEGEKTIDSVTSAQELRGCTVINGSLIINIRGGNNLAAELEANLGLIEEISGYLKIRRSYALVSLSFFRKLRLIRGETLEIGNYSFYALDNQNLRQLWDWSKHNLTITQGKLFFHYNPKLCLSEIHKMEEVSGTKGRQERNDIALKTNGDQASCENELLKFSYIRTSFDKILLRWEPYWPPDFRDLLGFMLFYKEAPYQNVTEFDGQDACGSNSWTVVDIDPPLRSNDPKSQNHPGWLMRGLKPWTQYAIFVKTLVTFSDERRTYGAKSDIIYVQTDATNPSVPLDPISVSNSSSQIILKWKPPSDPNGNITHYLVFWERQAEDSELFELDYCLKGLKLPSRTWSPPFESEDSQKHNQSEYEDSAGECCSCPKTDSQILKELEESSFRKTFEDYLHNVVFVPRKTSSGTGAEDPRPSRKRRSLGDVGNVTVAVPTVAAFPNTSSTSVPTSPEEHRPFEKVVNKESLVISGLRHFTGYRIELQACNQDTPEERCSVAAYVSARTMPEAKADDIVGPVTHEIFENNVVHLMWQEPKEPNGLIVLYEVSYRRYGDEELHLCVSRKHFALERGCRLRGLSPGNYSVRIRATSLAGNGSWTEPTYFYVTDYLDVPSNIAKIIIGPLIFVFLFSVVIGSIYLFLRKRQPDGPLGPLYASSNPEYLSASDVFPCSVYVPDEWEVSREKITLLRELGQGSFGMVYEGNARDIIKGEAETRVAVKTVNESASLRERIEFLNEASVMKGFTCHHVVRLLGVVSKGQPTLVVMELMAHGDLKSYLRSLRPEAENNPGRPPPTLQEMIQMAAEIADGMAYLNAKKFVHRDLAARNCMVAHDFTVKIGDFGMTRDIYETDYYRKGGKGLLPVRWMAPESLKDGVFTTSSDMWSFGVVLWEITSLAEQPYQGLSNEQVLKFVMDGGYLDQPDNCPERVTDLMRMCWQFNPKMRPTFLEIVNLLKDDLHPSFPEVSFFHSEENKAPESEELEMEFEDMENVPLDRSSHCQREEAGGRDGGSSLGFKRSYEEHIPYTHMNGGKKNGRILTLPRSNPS
Sequence of UniProt P37023 (whole entry, looked up): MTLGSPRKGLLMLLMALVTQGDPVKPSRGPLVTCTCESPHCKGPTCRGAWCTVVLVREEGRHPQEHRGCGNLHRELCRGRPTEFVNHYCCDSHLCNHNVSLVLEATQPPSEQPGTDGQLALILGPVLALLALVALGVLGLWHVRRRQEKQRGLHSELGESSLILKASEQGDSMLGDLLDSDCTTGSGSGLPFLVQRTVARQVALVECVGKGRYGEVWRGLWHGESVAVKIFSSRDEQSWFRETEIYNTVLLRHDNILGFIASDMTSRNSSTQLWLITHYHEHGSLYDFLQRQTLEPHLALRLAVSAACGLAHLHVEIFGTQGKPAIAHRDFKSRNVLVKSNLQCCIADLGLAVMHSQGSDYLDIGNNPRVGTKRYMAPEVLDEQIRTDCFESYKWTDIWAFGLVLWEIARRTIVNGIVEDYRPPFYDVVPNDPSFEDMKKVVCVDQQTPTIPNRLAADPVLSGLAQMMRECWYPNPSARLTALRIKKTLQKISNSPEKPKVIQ

Series 1 — method: competition with immobilised ligand; concentration: 1 µM
SMILES: COc1ccc2cc(OCC3(C(=O)O)CN(C(=O)c4ccc(F)cc4)C3)ccc2c1
target | assay | remaining binding
Insulin receptor (INSR, Homo sapiens, UniProt P06213) | cell-free assay | 93%
MAK (Homo sapiens, UniProt P20794) | cell-free assay | 100%
ACVRL1 (Homo sapiens, UniProt P37023) | binding | 93%
MYLK3 (Homo sapiens, UniProt Q32MK0) | cell-free assay | 100%
CHEK2 (Homo sapiens, UniProt O96017) | cell-free assay | 93%

Series 2 — observed: enzyme activity; mode: inhibitor; concentration: 0.5 µM; relative to: control
Target: Tyrosine-protein kinase receptor TYRO3 (TYRO3, Homo sapiens, UniProt Q06418)
Sequence of UniProt Q06418 (whole entry, looked up): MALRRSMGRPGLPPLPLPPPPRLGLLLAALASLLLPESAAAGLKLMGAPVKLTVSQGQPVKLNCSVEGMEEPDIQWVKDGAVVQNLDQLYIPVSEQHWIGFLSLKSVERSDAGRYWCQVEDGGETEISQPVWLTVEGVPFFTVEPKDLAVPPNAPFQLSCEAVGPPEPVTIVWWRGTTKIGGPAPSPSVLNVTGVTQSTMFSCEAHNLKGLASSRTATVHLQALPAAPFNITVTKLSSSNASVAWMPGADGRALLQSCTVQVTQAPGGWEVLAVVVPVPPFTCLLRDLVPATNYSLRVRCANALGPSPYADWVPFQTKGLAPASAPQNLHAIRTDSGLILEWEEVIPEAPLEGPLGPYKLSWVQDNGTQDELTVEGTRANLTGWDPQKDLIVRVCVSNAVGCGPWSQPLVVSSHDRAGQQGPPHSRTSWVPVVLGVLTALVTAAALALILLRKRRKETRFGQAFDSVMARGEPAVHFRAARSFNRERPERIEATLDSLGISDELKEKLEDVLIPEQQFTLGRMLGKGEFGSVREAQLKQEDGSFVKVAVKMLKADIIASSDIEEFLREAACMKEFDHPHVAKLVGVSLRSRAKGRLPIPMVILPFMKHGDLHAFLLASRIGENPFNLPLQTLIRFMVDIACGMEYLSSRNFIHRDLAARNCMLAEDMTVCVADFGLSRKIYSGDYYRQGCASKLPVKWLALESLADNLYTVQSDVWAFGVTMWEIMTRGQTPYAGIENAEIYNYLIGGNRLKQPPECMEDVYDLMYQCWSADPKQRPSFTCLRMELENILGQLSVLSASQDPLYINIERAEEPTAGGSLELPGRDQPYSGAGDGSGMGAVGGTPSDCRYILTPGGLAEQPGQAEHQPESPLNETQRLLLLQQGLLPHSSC
Compound | remaining activity [%]
COc1cc2ncnc(Nc3ccc(Oc4ccccc4)cc3)c2cc1OC | 83.4
CN(C)c1ccc(C=C2C(=O)Nc3ccccc32)cc1 | 92.7
O=C(Nc1cccc(Nc2cc(Nc3cccc(C(F)(F)F)c3)ncn2)c1)C1CC1 | 85.4
O=S(=O)(c1cccc2cnccc12)N1CCCNCC1 | 87.9
NCCNc1ncc(C(N)=O)c(Nc2cccc(C(F)(F)F)c2)n1 | 94.2
COc1cc2ncnc(Nc3ccc(F)c(Cl)c3)c2cc1OCCCN1CCOCC1 | 94.9
O=C1NC(=O)C(c2cn(CCCO)c3ncccc23)=C1c1cnccn1 | 93.7
Nc1[nH]nc2nc3ccccc3nc12 | 101
Oc1ccc(-c2nc(-c3ccncc3)c(-c3ccc(F)cc3)[nH]2)cc1 | 97.5
Cn1c2ccccc2c2c3c(c4c5ccccc5n(CCC#N)c4c21)CNC3=O | 85.6
O=C(O)c1ccc2c3c1cccc3c(=O)n1c3ccccc3nc21 | 102
N#CC(C#N)=C(N)/C(C#N)=C/c1ccc(O)cc1 | 99.3
OCC(O)CCON=C1C(c2c(O)[nH]c3ccccc23)=Nc2ccccc21 (centres unmarked) | 71.5
O=c1c2ccccc2[nH]c(=S)n1CCN1CCC(=C(c2ccc(F)cc2)c2ccc(F)cc2)CC1 | 91.1

Series 3 — organism: Sarcocystis neurona; observed: parasite growth; concentration: 10 µM; time: 96 h; setting: first screen; relative to: untreated
Structure (SMILES) | log2 fold change
Cc1nccn1CC1CCc2c(c3ccccc3n2C)C1=O (centres unmarked) | 0.28
CN1CCN(C2=Nc3ccccc3Oc3ccc(Cl)cc32)CC1 | -0.02
CC[C@H](C)C(=O)O[C@H]1C[C@H](O)C=C2C=C[C@H](C)[C@H](CC[C@@H](O)C[C@@H](O)CC(=O)O)[C@H]21 | -0.05
CN(C)[C@@H]1C(O)=C(C(N)=O)C(=O)[C@@]2(O)C(O)=C3C(=O)c4c(O)ccc(Cl)c4[C@@H](O)[C@H]3C[C@@H]12 | -0.6
CC(=O)NCCCCCCNC(C)=O | -0.0126

Series 4
SMILES: COc1cc(C(=O)N2CCC(N3CCN(C)CC3)CC2)ccc1Nc1ncc2c(n1)N(C)c1ccccc1C(=O)N2C
target or system | assay | test system | conditions | inhibition [%]
NDR1 (mouse) | probe labelling, KiNativ, measured: DTGHVYAMkILR peptide, LYS1 site | brain tissue lysate (mouse) | 1 µM, together with: ADP acyl-phosphate probe | -5.2
AKT1 (mouse) | probe labelling, KiNativ, measured: GTFGkVILVK peptide, ATP loop | brain tissue lysate (mouse) | 0.1 µM, together with: ATP acyl-phosphate probe | 2.5
 | inhibitor, KiNativ profiling, measured: peptide TSTQEYAAkIINTK | human PBMC lysate | concentration not given, Lys1 site, together with: ATP acyl-phosphate probe | -3.5
Receptor tyrosine-protein kinase erbB-4 (Erbb4, Mus musculus, UniProt Q61527) | probe labelling, KiNativ, measured: activation loop peptide | brain tissue lysate (mouse) | 0.1 µM, together with: ATP acyl-phosphate probe | -11.3

Series 5 — cell line: mouse MPNST tumor cells; method: high-content nuclear imaging; measured: cell number; concentration: 10 µM; time: 12 h; setting: mean of 2 replicates; relative to: plate mean; reading: higher = more cells
SMILES | nuclei count [z-score]
O=C(COc1ccccc1Cl)Nc1cc(Cl)ccc1C(=O)O | -0.017
O=C(CCCCCCCn1cc(-c2cccnc2)nn1)Nc1ccccc1-c1ccccc1 | -0.2
Nc1ccc(-c2cnc(N)c(-c3ccc(Cl)cc3)c2)cn1 | 4.55

Further values, each from its own experiment
Structure (SMILES) | test system | conditions | quantity | value
O=C1CCC(N2Cc3cc(C4CCN(Cc5ccccc5)CC4)ccc3C2=O)C(=O)N1 (centres unmarked) | rat Sprague Dawley male, plasma | intravenous, 1.0 mg/kg | Vss | 13.1 L/kg and 10.4 L/kg

A few entries again (series 2):
Compound | remaining activity [%]
COc1cc2ncnc(Nc3ccc(F)c(Cl)c3)c2cc1OCCCN1CCOCC1 | 94.9
OCC(O)CCON=C1C(c2c(O)[nH]c3ccccc23)=Nc2ccccc21 (centres unmarked) | 71.5
Nc1[nH]nc2nc3ccccc3nc12 | 101
Cn1c2ccccc2c2c3c(c4c5ccccc5n(CCC#N)c4c21)CNC3=O | 85.6
